Measurements of several laboratories.
Parts stem from different laboratories: compare values within a part only.

Block 1
Target: Interferon regulatory factor 5, full length, phosphomimetic (IRF5, Homo sapiens, UniProt Q13568-2, residues 1-514, K96S/S451D/S453D/S456D/S462D)
Technique: protein-binding microarray
Molecule type: double-stranded DNA, one strand shown
Matrix: in vitro
Tested at: 250 nM
Setting: 60-bp whole probe
Added: salmon DNA 0.4 mg/ml
Relative to: random background probes
Direction: higher = stronger binding
Oligonucleotide | log fluorescence [z-score]
GCCTAGCACGACGGTAACGACACTGGGGACGTGCTAGTCTTGATTCGCTTGACGCTGCTG | 0.0244
GCCTAGCACGGCGGTATCGACTATCGGGACGTGCTAGTCTTGATTCGCTTGACGCTGCTG | 3.8
GCCTAGCACTCATCTCTAACCTCTCTAACTGTGCTAGTCTTGATTCGCTTGACGCTGCTG | 0.533

Block 2
Target: RNA binding protein fox-1 homolog 2, RRM domain, GST-SBP tag (RBFOX2, Homo sapiens, UniProt O43251-10, residues 100-194)
Technique: RNA Bind-n-Seq
Molecule type: RNA
Matrix: in vitro
Tested at: 365 nM
Setting: natural RNA segment, single round, ends assumed
Relative to: no-protein control
Direction: higher = stronger binding
Construct (chain): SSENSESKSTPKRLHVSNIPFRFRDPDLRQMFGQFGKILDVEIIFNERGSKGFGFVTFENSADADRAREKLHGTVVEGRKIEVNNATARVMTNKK
Oligonucleotide | RBNS enrichment (R)
GGGAGUUCUACAGUCCGACGAUCGCUCAGUGUGAGCGGUUUGCUGUUAGCCAGGGCUAUUUAUGGCAAACACAUGCUUUUGUAUCUUGUCAUAGUUAUCCACAAAUGGCAAAACUGGACUUGAUUCUACUGGUUGGAAUUCUCGGGUGCCAA | 0.288
GGGAGUUCUACAGUCCGACGAUCUCUAAAUGCCGAUUUGAGUUCGCGACACAAUGUACUGCGUUUUCAUUCUUGUAUUUGACUAUUUAAUCCUUUCUACUUGUCGCUAAAUAUAAUUGUUUCAGUCCUAUGGCUGGAAUUCUCGGGUGCCAA | 0.756
GGGAGUUCUACAGUCCGACGAUCACAGGUUGAUGCAAGAGGUGGAAAUGUUCUCCAUAUCAAGAUGUGGCCCAAGGGGUUAAGUGGGAACAAUCAUUAUACGGACUCUUCAGAUUUACAGAGAACUUACACUUUGGAAUUCUCGGGUGCCAA | 0.96
GGGAGUUCUACAGUCCGACGAUCACCAAAUCUCAAAGCAAUGAGAAGCAUUCCUAAAUCCCAAAGUGCCCACAUGGGAAAGAGAUAAAAUGUACAAAUUAGAAAAAUGUGGAUAAACAGUCAAACCUUUAUCCUGGAAUUCUCGGGUGCCAA | 0.554

Block 3
Target: Histone acetyltransferase KAT6A, both winged helices, GST fusion (KAT6A, Homo sapiens, UniProt Q92794, residues 1-181)
Technique: protein binding microarray
Molecule type: double-stranded DNA, one strand shown
Matrix: in vitro
Tested at: not given
Setting: 8-mer, flanks averaged, mean of 2 arrays, mostly near background
Relative to: not given
Direction: higher = stronger binding
Residues (chain): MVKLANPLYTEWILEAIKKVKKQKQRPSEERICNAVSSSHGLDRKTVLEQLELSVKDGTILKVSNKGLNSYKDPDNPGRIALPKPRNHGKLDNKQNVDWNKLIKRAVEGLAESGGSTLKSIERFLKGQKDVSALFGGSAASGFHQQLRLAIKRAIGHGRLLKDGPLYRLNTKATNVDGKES
Oligonucleotide | E-score
ATTTAATA | -0.0618
AACTCGAC | -0.0966
ACCTTGCC | 0.0535

Other studies, line by line
Molecule | target | test | test system | conditions | scale | endpoint | result
PhoQ, residues 284 288 289 292 302 303 ALVSVA | PhoP, residues 12 14 15 18 19 GQAIL (Escherichia coli, UniProt P23836) | Sort-seq, refers to: YFP reporter | E. coli | PhoQ-PhoP variant library, added: 10 µM Mg2+ | relative to: high Mg2+ state, higher = stronger signaling | fold induction | 16.6

For quick reference, copied from above (block 2):
Oligonucleotide | RBNS enrichment (R)
GGGAGUUCUACAGUCCGACGAUCUCUAAAUGCCGAUUUGAGUUCGCGACACAAUGUACUGCGUUUUCAUUCUUGUAUUUGACUAUUUAAUCCUUUCUACUUGUCGCUAAAUAUAAUUGUUUCAGUCCUAUGGCUGGAAUUCUCGGGUGCCAA | 0.756
GGGAGUUCUACAGUCCGACGAUCACAGGUUGAUGCAAGAGGUGGAAAUGUUCUCCAUAUCAAGAUGUGGCCCAAGGGGUUAAGUGGGAACAAUCAUUAUACGGACUCUUCAGAUUUACAGAGAACUUACACUUUGGAAUUCUCGGGUGCCAA | 0.96
